{"data": "Measured values pooled from the literature", "cell line": "MCF7", "note": "± marks the error that the study gave."}
{"Compound": "CCCCn1cc(C(=O)O)c(=O)c2cc(F)c(Nc3cccc(OC)c3)c([N+](=O)[O-])c21", "test": "cell growth or viability, SRB", "IC50 [µM]": 123}
{"Compound": "O=C(CCCC(=O)Nc1ccc(-[c-]2cccc2)cc1)NO.[Fe+2].c1cc[cH-]c1", "test": "cell growth or viability", "IC50 [µM]": 5.08}
{"Compound": "CCCCn1cc(C(=O)O)c(=O)c2cc(F)c3[nH]nnc3c21", "test": "cell growth or viability, SRB", "IC50 [µM]": 171}
{"Compound": "CC1=[N+]2N=C(c3ccccc3)[O][Pd-2]2([Cl])[O+]=C2Oc3ccccc3C=C21 (stereo not drawn)", "test": "cytotoxicity, MTT", "setting": "48 h", "IC50 [µM]": "13.4 ± 0.9"}
{"Compound": "CCN1CCC2(CC1)C/C(=N\\NC(=O)Nc1ccccc1)c1ccccc1O2", "test": "cell growth, MTT", "setting": "48 h", "IC50 [µM]": "6.03 ± 0.27"}
{"Compound": "O=C(CCCCCCC(=O)NC[c-]1cccc1)NO.[Fe+2].c1cc[cH-]c1", "test": "cell growth or viability", "IC50 [µM]": 3.6}
{"Compound": "CCCCn1cc(C(=O)O)c(=O)c2cc(F)c(Nc3cc(OC)c(OC)c(OC)c3)c([N+](=O)[O-])c21", "test": "cell growth or viability, SRB", "IC50 [µM]": 79.9}
{"Compound": "O=C(/C=C/c1ccccc1)Oc1ccc2c(c1)O/C(=C\\C=C\\c1ccccc1)C2=O", "test": "cell growth or viability, MTT", "setting": "72 h", "IC50 [µM]": "> 100"}
{"Compound": "CN1CCC2(CC1)C/C(=N\\NC(=O)Nc1ccc(Cl)cc1)c1ccccc1O2", "test": "cell growth, MTT", "setting": "48 h", "IC50 [µM]": "2.9 ± 0.11"}
{"note": "A few entries again:"}
{"Compound": "O=C(CCCCCCC(=O)NC[c-]1cccc1)NO.[Fe+2].c1cc[cH-]c1", "test": "cell growth or viability", "IC50 [µM]": 3.6}
